Results gathered from unrelated publications.
A part holds a random share of what one study measured. Substitutions count along the parent as printed.

Set 1
Target: ABI1, truncated, D143A, DHFR fusion (Arabidopsis thaliana)
Method: DHFR PCA, deep sequencing
Matrix: yeast
Setting: methotrexate growth selection, single substitutions
With: (+)-ABA 4.8 µM
Relative to: wild-type fitted maximum
Reading: higher = stronger binding
Quantity: relative binding score
Starting sequence: PYL1, truncated, DHFR fusion (Arabidopsis thaliana); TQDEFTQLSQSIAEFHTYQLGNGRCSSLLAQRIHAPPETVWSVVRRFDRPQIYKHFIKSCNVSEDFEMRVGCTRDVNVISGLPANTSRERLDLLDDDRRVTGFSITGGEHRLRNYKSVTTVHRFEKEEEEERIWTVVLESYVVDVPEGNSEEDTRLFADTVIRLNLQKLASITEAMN
V62D: -9.19%
A84R: 4.93%
K168T: 75%
M176V: 54.3%
L164C: 77.8%
T106I: 106%
Q51H: 70.5%
D96Q: 5.66%
S171C: 73.6%
G148L: 8.88%
G107P: -4.69%
T101F: 86.3%
K126C: 91.4%
L29G: -2.86%
S59L: 10.8%
E64V: 60.7%
V143R: -3.26%
R123M: 53.6%

Set 2
Target: TAR DNA-binding protein 43, full length, His tag (TARDBP, Homo sapiens, UniProt Q13148, residues 1-414)
Method: RNA Bind-n-Seq
Form: RNA
Matrix: in vitro
Concentration: 20 nM
Setting: 6-mer, flanks averaged, single round
With: 150 mM LiCl
Relative to: input library
Reading: higher = stronger binding
Quantity: 6-mer enrichment (R)
CACCUG: 0.896
GCCAAU: 0.917
CGAGCC: 0.887
GGAUGU: 1.24
UUAAUU: 1.08
ACGUCA: 0.84
GUACAC: 0.893
GGGCGU: 1.15
AACGUG: 0.969
UGGAUC: 0.957
UACAUU: 0.914
CACACA: 0.894
GUUCGU: 1.03
AUUACU: 0.887
UGAAAG: 0.959
UUGUGC: 1.16
GAAGUG: 1.21
UUGGAG: 1.11
GCCAGC: 0.982
CGGCAC: 0.918
GGGCGC: 1.13
AAGGCA: 0.851
CACGUA: 0.877
ACGUCC: 0.859
UCAUAG: 0.844

Set 3
Target: CREB5, bZIP domain (human)
Method: DHFR protein complementation
Matrix: yeast
Setting: single substitutions, most at no-binding floor
Relative to: wild-type JUN-FOS pair
Reading: higher = stronger binding
Quantity: binding fitness
Starting sequence: JUN, bZIP domain (human); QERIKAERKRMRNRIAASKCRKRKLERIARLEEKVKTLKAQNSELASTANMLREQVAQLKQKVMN; partner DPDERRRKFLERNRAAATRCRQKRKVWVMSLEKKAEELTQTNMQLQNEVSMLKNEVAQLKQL
A46Q: -0.245 natural log
L52Y: -0.818 natural log
K34E: -0.586 natural log
K34C: -0.483 natural log
E33P: -1.33 natural log
A57N: -0.3 natural log
V35L: -0.57 natural log
V56T: -1.14 natural log
N42F: -1.07 natural log
A49L: -0.515 natural log
K39C: -0.52 natural log
A40L: -0.359 natural log
K34T: -0.28 natural log
L52T: -1.4 natural log
R53Q: -0.928 natural log
K36N: -0.274 natural log
N42G: -0.893 natural log
V56M: -0.699 natural log
E32I: -0.623 natural log
M51H: -0.339 natural log
A29S: -0.382 natural log
V35E: -1.36 natural log
V56E: -1.31 natural log
A29M: -0.613 natural log
V56H: -1.06 natural log

Set 4
Target: Histone acetyltransferase KAT6A, winged helix 2, GST fusion (KAT6A, Homo sapiens, UniProt Q92794, residues 85-181)
Method: protein binding microarray
Form: double-stranded DNA, one strand shown
Matrix: in vitro
Concentration: not given
Setting: 8-mer, flanks averaged, mean of 2 arrays, mostly near background
Relative to: not given
Reading: higher = stronger binding
Quantity: E-score
Target sequence (chain): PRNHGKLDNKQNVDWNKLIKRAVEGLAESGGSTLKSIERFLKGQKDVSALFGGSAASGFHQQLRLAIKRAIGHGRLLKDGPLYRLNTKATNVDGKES
CGACTTCA: -0.0282
CTAATCCC: -0.111
ACGCGGTA: 0.0476
ACTAGCCA: -0.0703
AGAGGCAT: 0.137
CGCAGTCC: 0.164
CACTCCCA: -0.013
TCATGCCA: -0.0199
CGTCGAAG: 0.00832
CGTGCAAG: 0.0119
ATCTCCGG: 0.0611
CCTAGCCA: -0.0168
ACACTGTA: -0.218
GTAGCGTA: -0.00332
CGGTTCAC: -0.0664
ACAAAACC: 0.0524
GGACTTTA: -0.0505
GGCGAACC: 0.22
CGTCGGGC: 0.0832
CCTTGACC: 0.0898

Set 5
Target: RNA binding protein fox-1 homolog 2, RRM domain, GST-SBP tag (RBFOX2, Homo sapiens, UniProt O43251-10, residues 100-194)
Method: RNA Bind-n-Seq
Form: RNA
Matrix: in vitro
Concentration: 365 nM
Setting: natural RNA segment, single round, ends assumed
Relative to: no-protein control
Reading: higher = stronger binding
Quantity: RBNS enrichment (R)
Constant ends, left off below: GGGAGUUCUACAGUCCGACGAUC … UGGAAUUCUCGGGUGCCAA
Residues (chain): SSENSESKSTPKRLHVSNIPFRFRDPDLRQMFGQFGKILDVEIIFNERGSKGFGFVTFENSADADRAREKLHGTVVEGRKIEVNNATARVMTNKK
CCCAGACUUCAACCCCACAGAGUCCUCUCUUACCACCCCCAUAUGCUUCGCCCCACUGCAUAGCUGUGUUAAGCUACAUGGCUUUAAUGAUAAAUGGGUUUAUUUCUAAG: 0.548
AUGUCCUACAGUUCUGCUAUCACCUGACUAGAAUAGCCCUCUAGGCAACAGUGCUCAAAUGUAUGAGUUUGGAGAAGUUAACAAUCAGAAGAACAAAAACUGUAGUGUUU: 0.364
GAGGGUCAUGGGUUUGCUUUUGCUGUUGUGACGCCUGUUCCCGUCUCUAUGUUAAAAUGCCAAAAAUGACCCAGUCUGUCGCUUUCCUCCGCCCCAGCGCUUCACAGCCG: 0.945
CAACUCCAGGUCAAAUCUGGAGCUCAAAUCCCAGUGCUCCCUCCCCAGGAGUGGGGCCCCAACUCUUCCAAGAUACCAGCAUUCCUCAAGUCCUCCCAAAACUUCCUACC: 0.314
CUGGCAGGACUCACAGGAACAAACGAGGUCCCUGUUAGGGUUCUACUCGGGGGAGGGAGGGGGCUCCAUGAAAGGUACGUCUGAAAAGUUUCUGAAGAUUUUAUUAUCAU: 0.333
UGGAGUAUGGAGUUUACCUUUGGAGAAGUUGUAAUGGAGCAUGCCCUGUCCCACCACUCUCAGAGAGGGUGUACCUGUCAAACUGGAUGGCCUACAUAGGUACUCCCCCC: 2.67
ACGUACUGUAUUUUUACAAUGAUCGUCGCAUGGCUCUCCCACCCCCUUUUGUACUCAGUAUCUGUCUUCCAGAAACCUCACCUGCCUUCUCUCUCAUGUGGUCUCUUAAU: 0.518
AGCAUUGCAGCCUAUGUGCAAACCCAGAGGAAAAGUAUCUCUGUCAAGACAGCUCCAGUAUCAUGCAGCUUUUUAUGUUUGCACUCAAAAAGCCAGUGCCUUCUGGCUGG: 0.372
GUGCACACUCGGAUUUGCUACGUUUCUAUAUAUCUUGAAGCUAAAUGUAUAUAUGAGUAGUUUGCCAUGAGAUAACACAGUGUAAACAGUAGACACCCAGAAAUCGUGAC: 0.413
CCCAGGGCACCUAGCUGUCCCUGCUGGUCCUGGGGCUGCCAGAAUUCCCUUGGGCGCCAAGCAACCUGCCAGGUAGCCAGUCCCUCUGUUACAAGCCUUUGCAUCUGGAU: 0.367
CUGGCUGCUGCUCCCUCUGGGCUCAUAGCUGGCCCACUUGACGGUCCCUGGUGGCUUCUGGAGGGAAGCUGUACCUCUAGAUACAUUUUUCUUUUCCUUCAGAGACCGUG: 0.247
UGAAAAAUUAUCAGUUAUAUUUUGCUGUUUAUGAUCUAUUUGUAGAUUAGGAUUAAAAUGGAUUUAAUCCAUUUUUAAGGCUGUGUGAAUUUUUCUAAACAAGAACCAUU: 0.387

Set 6
Target: CCND1, cyclin fold, Cln2 fusion (human)
Method: yeast growth competition, sequencing
Matrix: yeast
Setting: weak parent motif
Relative to: not given
Reading: higher = stronger binding
Quantity: normalised enrichment score
Starting sequence: E2F1 docking peptide (human); PPVKRRLDLETDH; partner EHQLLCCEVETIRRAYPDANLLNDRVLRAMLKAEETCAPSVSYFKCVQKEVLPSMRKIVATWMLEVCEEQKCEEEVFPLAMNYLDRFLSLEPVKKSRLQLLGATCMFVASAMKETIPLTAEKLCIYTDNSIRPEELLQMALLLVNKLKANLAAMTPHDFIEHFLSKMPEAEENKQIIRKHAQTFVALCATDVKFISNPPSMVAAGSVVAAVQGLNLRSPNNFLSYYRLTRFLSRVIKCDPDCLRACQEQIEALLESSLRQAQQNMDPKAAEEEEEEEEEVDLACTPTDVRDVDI
P2E: 0.661
V3G: -0.235
V3N: 0.252
V3Q: 0.244
P1Q: 0.458
V3A: 0.879
D8I: 1.03
H13K: 1.59
T11V: 0.375
P1I: 0.67
R5W: 0.38
R5H: 0.496
P2S: 0.604
R6C: 0.495
D12K: 0.389
R6S: -0.0174
R5D: 0.382
P2N: 0.354

Some of these lines once more (set 4):
CTAATCCC: -0.111
GGCGAACC: 0.22
ACTAGCCA: -0.0703
CGCAGTCC: 0.164
GGACTTTA: -0.0505
ACACTGTA: -0.218
CGTCGGGC: 0.0832
CACTCCCA: -0.013
CCTAGCCA: -0.0168
GTAGCGTA: -0.00332
ACGCGGTA: 0.0476
CGTGCAAG: 0.0119
CGACTTCA: -0.0282
TCATGCCA: -0.0199
CGTCGAAG: 0.00832
ACAAAACC: 0.0524
CGGTTCAC: -0.0664
ATCTCCGG: 0.0611
CCTTGACC: 0.0898
